Published values of several laboratories.
Parts stem from different laboratories: compare values within a part only.

Study 1
Target: Transcriptional repressor CTCF (CTCF, Homo sapiens, UniProt P49711, residues 1-727, full length assumed)
Method: protein-binding microarray
Molecule type: double-stranded DNA, one strand shown
Matrix: in vitro
Concentration: not given
Setting: k-mer, scored over probes, only values ≥0.25
Reading: higher = stronger binding
Measurement: E-score
Target sequence (chain): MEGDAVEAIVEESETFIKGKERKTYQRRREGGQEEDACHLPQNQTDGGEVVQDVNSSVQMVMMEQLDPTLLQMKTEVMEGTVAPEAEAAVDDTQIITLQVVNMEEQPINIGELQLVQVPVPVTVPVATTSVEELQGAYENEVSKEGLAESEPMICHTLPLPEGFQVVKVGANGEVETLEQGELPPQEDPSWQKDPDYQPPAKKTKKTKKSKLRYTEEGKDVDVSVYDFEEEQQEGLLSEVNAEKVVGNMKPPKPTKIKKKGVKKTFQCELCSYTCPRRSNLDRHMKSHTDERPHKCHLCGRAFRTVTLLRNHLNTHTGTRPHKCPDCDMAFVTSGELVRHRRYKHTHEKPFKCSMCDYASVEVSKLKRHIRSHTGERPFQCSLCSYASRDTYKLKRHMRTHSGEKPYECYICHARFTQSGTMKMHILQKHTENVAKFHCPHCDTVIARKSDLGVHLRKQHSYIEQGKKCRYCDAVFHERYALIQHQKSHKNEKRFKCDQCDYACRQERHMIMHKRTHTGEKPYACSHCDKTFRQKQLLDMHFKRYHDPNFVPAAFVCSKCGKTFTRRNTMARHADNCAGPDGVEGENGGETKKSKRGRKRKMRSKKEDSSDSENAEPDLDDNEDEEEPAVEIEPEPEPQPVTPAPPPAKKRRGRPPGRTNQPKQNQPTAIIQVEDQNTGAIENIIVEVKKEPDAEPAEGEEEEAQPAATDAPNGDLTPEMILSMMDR
AGGAAAAT: 0.271
AATAAAAA: 0.326
AATGAAAA: 0.287
GAATATTC: 0.269
ATATTATA: 0.312
AACGCGCT: 0.256
AATTTATC: 0.289
AATATATT: 0.427
CGGCGCGC: 0.317
GCATGATA: 0.297
GAAAAAAA: 0.326
ACTGAAAC: 0.256
ATTGCATG: 0.259
GATTGCAC: 0.287
AACTGAAA: 0.282
CTCGCGCA: 0.289
AATATTTG: 0.263
GTGGCGTA: 0.28

Study 2
Target: Interferon regulatory factor 3, full length, phosphomimetic (IRF3, Homo sapiens, UniProt Q14653, residues 1-427, S386D/S396D/S398D/S402D/T404D/S405D)
Method: protein-binding microarray
Molecule type: double-stranded DNA, one strand shown
Matrix: in vitro
Concentration: 2540 nM top
Setting: 60-bp whole probe
Together with: salmon DNA 0.4 mg/ml
Baseline: random background probes
Reading: higher = stronger binding
Measurement: fitted relative affinity
All sequences stand within: GCCTAGCAC … GTCTTGATTCGCTTGACGCTGCTG
Residues (chain): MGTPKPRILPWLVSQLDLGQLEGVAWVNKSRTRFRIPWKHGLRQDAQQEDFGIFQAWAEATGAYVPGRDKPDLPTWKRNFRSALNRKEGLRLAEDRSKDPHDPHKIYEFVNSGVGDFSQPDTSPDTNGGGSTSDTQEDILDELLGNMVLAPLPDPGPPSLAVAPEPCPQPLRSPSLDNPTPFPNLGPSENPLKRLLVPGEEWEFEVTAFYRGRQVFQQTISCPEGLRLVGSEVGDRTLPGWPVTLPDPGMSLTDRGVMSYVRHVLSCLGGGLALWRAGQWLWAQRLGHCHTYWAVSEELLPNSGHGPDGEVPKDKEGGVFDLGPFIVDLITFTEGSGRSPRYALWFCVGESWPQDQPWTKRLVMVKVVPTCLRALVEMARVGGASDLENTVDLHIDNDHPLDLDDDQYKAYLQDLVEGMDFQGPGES
TTAGGTATCGGGTTTCGGTCAGTGCTA: 3.34 z-score
GACGGTTTCGGGTATTGGGACGTGCTA: 4.34 z-score
TTTGCTTTCTTTTATGCTCTGTGCTAG: 2.72 z-score
GGGGCTTGGGAGAGGCATCCGTGCTAG: -1.16 z-score
AGAGTCACCCATCTCAACAAGTGCTAG: 1.56 z-score
CTAGAACTGAGACTGGATTAGTGCTAG: -0.234 z-score
TTAGGTTTCGGTTTCGGTGAGTGCTAG: 10.9 z-score
GTCGAACTGAGTATCGAGACGTGCTAG: 0.429 z-score
TCAAATTTAGAAAATGGAACTGTGCTA: 0.197 z-score
TTAGATTTCGGTTTCGATTAGTGCTAG: 8.33 z-score
GACGGATTGGGTCTCGGGACGTGCTAG: -0.175 z-score
GACGGTCTCGGTATCGGGAGGTGCTAG: 1.51 z-score
GACGGTTTCGGTATCGGCACGTGCTAG: 8.08 z-score
GAGGGTTTCGGTTCCGGGACGTGCTAG: 8.98 z-score
GACGGTTTTCTACTGCTGACGTGCTAG: 1.71 z-score
TTAGATTTCAGTTTCGATTAGTGCTAG: 5.63 z-score
GACGGTATCCTACTGCTCACGTGCTAG: 2.56 z-score

Study 3
Target: Ras GTPase-activating protein-binding protein 1, C-terminal RGG region (G3BP1, Homo sapiens, UniProt Q13283)
Sequence of UniProt Q13283 (whole entry, looked up): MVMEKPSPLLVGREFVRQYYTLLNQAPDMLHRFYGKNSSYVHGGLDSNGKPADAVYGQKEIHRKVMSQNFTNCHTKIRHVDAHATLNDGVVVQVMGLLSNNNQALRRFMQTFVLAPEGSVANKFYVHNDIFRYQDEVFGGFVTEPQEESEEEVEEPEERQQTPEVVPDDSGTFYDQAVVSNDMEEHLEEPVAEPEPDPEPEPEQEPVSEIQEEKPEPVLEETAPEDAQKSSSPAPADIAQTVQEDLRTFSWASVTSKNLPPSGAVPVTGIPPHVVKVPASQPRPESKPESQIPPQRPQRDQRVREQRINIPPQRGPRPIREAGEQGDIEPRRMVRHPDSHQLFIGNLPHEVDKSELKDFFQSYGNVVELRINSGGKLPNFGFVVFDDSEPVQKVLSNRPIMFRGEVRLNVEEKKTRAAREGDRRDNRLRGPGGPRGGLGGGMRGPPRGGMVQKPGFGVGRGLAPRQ
Method: RNA Bind-n-Seq
Molecule type: RNA
Matrix: in vitro
Concentration: 1 µM
Setting: whole 134-nt RNA, ends assumed
Together with: 150 mM KCl
Baseline: input library
Reading: higher = stronger binding
Measurement: log2 enrichment
All sequences stand within: GGGAGUUCUACAGUCCGACGAUC … UGGAAUUCUCGGGUGUCAAGG
AAGUCCUGUGCUACACAUCGUAUGUACCGAAUCGGAAAAGGGGAAAAGGGAAAAGGGAAAGUAUUAUGUUACGCCGUUCGGAUCUGCACU: -0.735
GUCCUGUGCUACACAUCGUAUGUACCGAAUCAAACCCAAAUUUUUUUAAAUUUUUAAAAAAGUAUUAUGUUACGCCGUUCGGAUCUGCAC: -1.57
GUAAGUGUGGCAAUGUGAACUGAAGCUGAUGGGCUGAGAACAUGGACUGAGCUUGUGGUGUGCUUUGCAGGAGGACUUGAAGCAGAGUUC: 1.44
AGUCCUGUGCUACACAUCGUAUGUACCGAAUCGGGAAAAAAAGGGAAAGGGUUUGGGAAAGUAUUAUGUUACGCCGUUCGGAUCUGCACU: 0.6
CCUCAAGUCCUGUGCUACACAUCGUAUGUACCGAAUCGGUUUUUGGUGGUGGAAAGUAUUAUGUUACGCCGUUCGGAUCUGCACUUCCAG: -0.675
CUGUGCUACACAUCGUAUGUACCGAAUCGGGCCCCCCCGGGGCCCCCCCGGGCCCCCCCGGGAAAGUAUUAUGUUACGCCGUUCGGAUCU: -2.3
CUGUGCUACACAUCGUAUGUACCGAAUCGGGUUUUUUUGGGUUUUUUUGGGGUUUUUUUGGGAAAGUAUUAUGUUACGCCGUUCGGAUCU: -1
GUCCUGUGCUACACAUCGUAUGUACCGAAUCGGGUUUUUGGGAAAAAGGGAAAAAGGGAAAGUAUUAUGUUACGCCGUUCGGAUCUGCAC: -0.837
UGCUGCUUUCUGCCUUGGUGGCAGGCAGAGAACUGUCUCGUACUAGAAUUCAAGGAGGAAAGAAGAAGAAAUAAAAGAAGCUGCUCCAUU: -1.57

Study 4
Target: RNA binding protein fox-1 homolog 2, RRM domain, GST-SBP tag (RBFOX2, Homo sapiens, UniProt O43251-10, residues 100-194)
Method: RNA Bind-n-Seq
Molecule type: RNA
Matrix: in vitro
Concentration: 365 nM
Setting: natural RNA segment, single round, ends assumed
Baseline: no-protein control
Reading: higher = stronger binding
Measurement: RBNS enrichment (R)
All sequences stand within: GGGAGUUCUACAGUCCGACGAUC … UGGAAUUCUCGGGUGCCAA
Construct (chain): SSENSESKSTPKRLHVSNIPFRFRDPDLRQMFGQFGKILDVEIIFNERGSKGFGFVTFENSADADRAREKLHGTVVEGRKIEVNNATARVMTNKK
UUAUAUAUUCAGAUGGAAAAAAAUUUCCCCUUACACUCUUUCUCAAAAUACUCUCAUUUCGGUUUUUCCUGAAACCUUAUUUGGCCAUUCCCAUGGUUUUAUGACAGACA: 0.962
UAGUUGCCAGAUCUCUACUUUUAUCCUGCAUGGGAUAAUAUAUCUGUAAAUGCAUGAGUUUGGAAACCACCCAUCAAAUAUGAAAGGCUGAUGAGACUGUUAGGAUUGAU: 9.18
CUUGUGGCUACAUCAUCCCUGGCUGUGGAUAGUGCUUUUGUGUAGCAAAUGCUCCCUCCUUAAGGUUAUAGGGCUCCCUGAGUUUGGGAGUGUGGAAGUACUACUUAACU: 0.624
CAGACAGCCGCCUCUAGGGGCUGGGUUCUGCUGGGGCCUCCUUGUUGGUGCUGUAGGCACCCGCCAGGGAGCAGGGACCCGACUUGCAGACGCAUUGCCCGGUACUAGGA: 0.26
CCUUCGACCACAGCAAGCCAUCAUCCUCCAUUGCUCCCGGGGACUCAAGAGGAAUCUGUUUCUCUGCUGUCAACUUCCCAUCUGGCUCAGCAUAGGGUCACUUUGCCAUU: 0.729
GACUCUGGUCUUGGCUAUGCUGAAGACUUUUUUAAAAAAUGGUUUUCAGGGAACCGUGAGGAUCUGGCAACAUGGCUCUGCUUGCAAUAUCCACUGAGCACUGUAAUACA: 0.698
UUUUCAAAGUAGAGCGUGAGCAUGUAUUUUUAGUGGGAGAGCUCUGAUAGUUGUUGGGAAUAUAUAAUUUACUGGACCUCAGCCCAAAUCAAGAUGCUUAAAAUUGUACU: 1.04
AUUAUGUAAGAAUCUUGCACAGCACUGCUAAUGUAAAUUUCAGUUGUUUUUCCCUCUAGGACAAACACUUACCAAAAUAUGCAACUUUUUUUUGGUGGGAAGAGAGAUUG: 1.69

Study 5
Target: PABPC1L2, full length, GST fusion (mouse, UniProt A0ABA7IW68)
Method: RNAcompete
Molecule type: RNA
Matrix: in vitro
Concentration: 20 nM
Setting: 7-mer, probes averaged, single round
Baseline: mean of 7-mers
Reading: higher = stronger binding
Measurement: 7-mer Z-score
Residues (chain): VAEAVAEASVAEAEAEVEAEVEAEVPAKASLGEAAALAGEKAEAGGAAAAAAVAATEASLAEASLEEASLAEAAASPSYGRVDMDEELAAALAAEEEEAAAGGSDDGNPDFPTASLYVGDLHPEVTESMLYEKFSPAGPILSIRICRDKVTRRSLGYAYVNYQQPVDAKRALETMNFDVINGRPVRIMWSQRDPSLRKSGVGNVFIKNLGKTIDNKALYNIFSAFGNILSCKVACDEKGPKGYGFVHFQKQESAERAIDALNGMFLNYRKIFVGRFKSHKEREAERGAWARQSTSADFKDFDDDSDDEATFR
UUUUGGG: -0.0681
AUAGGGC: 0.191
AGUACCU: 0.00254
CGUUGUU: -0.376
UUUCGUC: -0.612
AACCUGU: 0.00979
UGAAACU: -0.0446
UAGCGAU: -0.13
GUAUUAC: -0.306
UCGUAUC: -0.47
CAGCUCG: -0.324
AGAACUC: -0.18
ACGUUGC: -0.162
CCCCGCC: -0.516
UGCAAAA: 2.86
CGAUUAC: -0.122
GGGAUAC: 0.441
AUCGGUG: 0.119
AACCGUC: -0.219
CUCCCUG: -0.393
CAUUAAG: -0.0536
AUACAGG: 0.222
UGAGCGU: -0.293
UGAUACC: -0.271
AAUUUCA: -0.0246
